Measured values from different studies.
Protocols differ between the studies behind these lines. ± marks the error that the study gave.

SMILES	cell line	test	conditions	EC50 [µM]
COC(=O)[C@]1(C)C=C(C(=O)Nc2cccc(C(=O)Nc3ccc(Nc4nccc(-c5cccnc5)n4)c(C)c3)c2)C(=O)CC1	SH-SY5Y MKK7 inducible	c-Jun Ser73 phosphorylation, inhibitor, western blot, measured: phospho-c-Jun Ser73	6 h, with: doxycycline	0.32 ± 0.12
Cn1nc(I)c2c(N)ncnc21	LC-2/ad, RET-CCDC6 fusion	cell viability		1
Cc1ccc(CNC(=O)[C@H](CCCCNC(=O)OCc2ccccc2)NC(=O)[C@H](CC2CCCCC2)NC(=O)Cc2cccnc2)cc1	HFF	cell viability	72 h	> 100
C=CC(=O)N1CCCCC1C(=O)O (stereo not drawn)	AP1-luc HEK293	AP1 reporter gene, activator, luciferase	with: FBS stimulation	0.11
O=C(O)c1ccc(-c2nc(-c3cccc(C(F)(F)F)c3)cs2)cc1	NB-4	cell growth or viability	72 h	0.95
Cc1ccc(CNC(=O)[C@@H](NC(=O)[C@H](CCc2ccccc2)NC(=O)[C@H](CCc2ccccc2)N(C)C)C(C)C)cc1	HFF	cell viability	72 h	14
[Ru+2].c1ccc(-c2ccc3c(n2)c2ncccc2c2nc4cc5ccccc5cc4nc32)nc1.c1ccc(-c2ccc3c(n2)c2ncccc2c2nc4cc5ccccc5cc4nc32)nc1	M1 murine macrophages	cell viability, MTT	1 h, blue light 56 J/cm2	2.2 ± 0.4
O=c1c(-c2cnn(-c3ccc(Cl)cc3)c2)c(C(F)(F)F)oc2c(O)c(O)ccc12	subset of tumour cell lines	cytotoxicity		~2
Cn1cncn1.[Ru+2].c1cc(-c2ccc3ccccc3n2)nc(-c2ccc3ccccc3n2)c1.c1ccc2cc3nc4c5cccnc5c5ncccc5c4nc3cc2c1	L929	cell viability, MTT	4 h, green light, 10 min	2.6 ± 0.9
Cc1ccc(CC(=O)c2c(O)c(O)cc3c(O)c(-c4c(C)cc5c(C(=O)Cc6ccc(C)cc6)c(O)c(O)cc5c4O)c(C)cc23)cc1	RS11846	ATP-lite viability	72 h	2.2
Cc1ccc(CNC(=O)[C@@H](NC(=O)[C@H](CCc2ccccc2)NC(=O)[C@@H](NC(=O)c2cnc(C)cn2)C(C)(C)C)C(C)C)cc1	HFF	cell viability	72 h	2.9
FC(F)(F)c1ccnc(-c2cc(C(F)(F)F)ccn2)c1.FC(F)(F)c1ccnc(-c2cc(C(F)(F)F)ccn2)c1.[Cl-].[Cl-].[Ru+2].c1csc(-c2ccc(-c3ccc(-c4ccc(-c5nc6c7cccnc7c7ncccc7c6[nH]5)s4)s3)s2)c1	SK-MEL-28	cell viability	hypoxia 1% O2, with: green light 523 nm	1
Cc1cc2cc(O)c(O)cc2c(O)c1-c1c(C)cc2cc(O)c(O)cc2c1O	RS11846	apoptosis, annexin V/PI flow cytometry	1-2 d	24.7
CSCC[C@H](NC(=O)[C@H](CO)NC(=O)[C@@H](N)CO)C(=O)N[C@@H](CCCCN)C(=O)N[C@@H](CC(C)C)C(=O)N[C@@H](CO)C(=O)N[C@@H](Cc1ccccc1)C(=O)N[C@@H](CCCNC(=N)N)C(=O)N[C@@H](C)C(=O)N[C@@H](CCCNC(=N)N)C(=O)N[C@@H](C)C(=O)N[C@@H](Cc1ccc(O)cc1)C(=O)NCC(=O)N[C@@H](Cc1ccccc1)C(=O)N[C@@H](CCCNC(=N)N)C(=O)NCC(=O)N1CCC[C@H]1C(=O)NCC(=O)N1CCC[C@H]1C(=O)N[C@@H](CCC(N)=O)C(=O)N[C@@H](CC(C)C)C(=O)O	primary hepatocytes			~0.0434
Cc1nc(C)c(C(=O)Nc2ccc(F)c(-c3nc4ncc(-c5ccccn5)cn4n3)c2)o1	NIH3T3	ubiquitylated protein accumulation		> 10
Cc1ccc2c(n1)c1nc(C)ccc1c1nc3cc4ccccc4cc3nc21.[Ru+2].c1ccc(-c2cccc(-c3ccccn3)n2)nc1.c1ccncc1	M1 murine macrophages	cell viability, MTT	1 h, blue light 56 J/cm2	0.23 ± 0.14
Cc1ccc(CNC(=O)[C@H](CCc2ccccc2)NC(=O)[C@@H](N)CCc2ccccc2)cc1	HFF	cell viability	72 h	> 50
NS(=O)(=O)NCC(F)(F)c1ccccc1F	rat hippocampal neurons	neuroprotection, propidium iodide	with: glutamate 30 µM, 5 min	0.00013

Excerpt of the above:
SMILES	cell line	test	conditions	EC50 [µM]
COC(=O)[C@]1(C)C=C(C(=O)Nc2cccc(C(=O)Nc3ccc(Nc4nccc(-c5cccnc5)n4)c(C)c3)c2)C(=O)CC1	SH-SY5Y MKK7 inducible	c-Jun Ser73 phosphorylation, inhibitor, western blot, measured: phospho-c-Jun Ser73	6 h, with: doxycycline	0.32 ± 0.12
O=c1c(-c2cnn(-c3ccc(Cl)cc3)c2)c(C(F)(F)F)oc2c(O)c(O)ccc12	subset of tumour cell lines	cytotoxicity		~2
